Measured values collected from several papers.

SMILES | species | sample | route | dose | notes | Cmax
CCCN(c1ccc(C(=O)NCCC(=O)O)cc1)S(=O)(=O)c1cc(C)c(-c2ccc(C(C)(C)C)cc2)c(C)c1 | rat | plasma | oral | 5 mg/kg |  | 35.3 ng/mL
Cc1ccc(OCC(=O)N(Cc2cccs2)c2ccn[nH]2)cc1 | female Sprague-Dawley rat | plasma | oral | 100 mg/kg | single dose | 47.8 ng/mL
COc1cc2ncnc(Oc3ccc(Nc4nccc5[nH]cc(-c6ccc(F)cc6)c(=O)c45)cc3F)c2cc1OC | male Sprague-Dawley rat | plasma | oral | 10 mg/kg |  | 12700 ng/mL
NC(=O)c1cccnc1.O=c1[nH]cc(F)c(=O)[nH]1.O=c1[nH]cc(F)c(=O)[nH]1.O=c1[nH]cc(F)c(=O)[nH]1 | rat | plasma | oral | 0.06 mmol/kg |  | 21.9 µM
N#Cc1cnc2cc(OCC3CCNCC3)c(F)cc2c1Nc1cc(F)c(OCc2cccc(Cl)n2)cc1Cl | male Sprague-Dawley rat | plasma | oral | 300 mg/kg |  | 8000 ng/mL
C[Si]1(C[C@@H](CN)CC(=O)O)CCCC1 | male Sprague-Dawley rat | plasma | oral | 30 mg/kg | single dose | 34.3 µM
O=C(Nc1ccc(C(F)(F)F)nc1)N1CCC(Cc2cccc(Oc3ccc(C(F)(F)F)cn3)c2)CC1 | male Sprague-Dawley rat | blood | oral | 1 mg/kg |  | 0.095 µM
CC12CC3CC(C)(C1)CC(NC(=O)Nc1ccc(C(=O)N4CCCC(C(N)=O)C4)cc1)(C3)C2 (centres unmarked) | Sprague-Dawley rat | plasma | intravenous | 10 mg/kg |  | 30.1 µM
CN1Cc2c(Cl)cc(Cl)cc2C(c2cccc(S(=O)(=O)NCCOCCOCCOCCNC(=O)C(O)C(O)C(=O)NCCOCCOCCOCCNS(=O)(=O)c3cccc(C4CN(C)Cc5c(Cl)cc(Cl)cc54)c3)c2)C1 (centres unmarked) | male Sprague-Dawley rat | plasma | oral | 9.4 mg/kg |  | 6 ng/mL
C[Si](C)(C)C[C@@H](CN)CC(=O)O | male Sprague-Dawley rat | plasma | oral | 100 mg/kg | single dose | 102 µM
Cc1cc(/C=C/C#N)cc(C)c1Oc1nc(NC2CCN(Cc3ccc(P(C)(C)=O)cc3)CC2)nc2ccsc12 | male Sprague-Dawley rat | plasma | intravenous | 2 mg/kg |  | 1780 ng/mL
COc1ccc(S(=O)(=O)N2CCc3ccccc3C2)cc1N1CCN(C(=O)c2ccc(F)cc2C(F)(F)F)CC1 | rat | plasma | intravenous | 10 mg/kg | single dose | 963 ng/mL
Cc1cc(N2CCC(C#N)(C3(C)CC3)C2=O)cc(C(=O)NCc2cc(F)cc(-c3cnn(C)c3)c2)n1 (racemic) | male Sprague-Dawley rat | plasma | oral | 3 mg/kg |  | 0.9 µM
CC1(C)CC[C@]2(C(=O)O[C@@H]3O[C@H](CO[C@@H]4O[C@H](CO)[C@@H](O)[C@H](O)[C@H]4O)[C@@H](O)[C@H](O)[C@H]3O)CC[C@]3(C)C(=CC[C@@H]4[C@@]5(C)CC[C@H](O[C@@H]6OC[C@H](O)[C@H](O)[C@H]6O)[C@@](C)(CO)[C@@H]5CC[C@]43C)[C@@H]2C1 | Sprague-Dawley rat | plasma | oral | 150 mg/kg |  | 1110 ng/mL
CC(=O)Oc1c2c(c3ccc4c(c3c1OC(C)=O)C=CC(=O)C4(C)C)OC[C@@H]2C | female Sprague-Dawley rat | serum | intravenous | 10 mg/kg |  | 4520 ng/mL
CSCOC1C(=O)C2(C)C(OCSC)CC3OCC3(OC(C)=O)C2C(OC(=O)c2ccccc2)C2(O)CC(OC(=O)C(O)C(C=C(C)C)NC(=O)OC(C)(C)C)C(C)=C1C2(C)C (centres unmarked) | female Sprague-Dawley rat | plasma | intravenous | 2 mg/kg |  | 264 ng/mL
CC12CC3CC(C)(C1)CC(NC(=O)Nc1ccc(C(=O)N4CCC[C@H](C(N)=O)C4)cc1F)(C3)C2 | Sprague-Dawley rat | plasma | oral | 50 mg/kg |  | 1 µM
C[Si]1(C)CNC(=O)c2ccccc21 | rat | plasma | oral | 5 mg/kg | single dose | 847 ng/mL
CC(C)(C)C(=O)Nc1ccc2[nH]c(CN3CCC(N(CCCN4CCOCC4)CC4OC(n5cnc6c(N)ncnc65)C(O)C4O)CC3)nc2c1 (centres unmarked) | male Sprague-Dawley rat | plasma | intraperitoneal | 20 mg/kg |  | 2030 ng/mL
C#Cc1cccc(Nc2ncnc3cc(OC)c(OCCCN4CCOCC4)cc23)c1 | Sprague-Dawley rat | plasma | oral | 40 mg/kg |  | 1800 ng/mL
CN1Cc2c(Cl)cc(Cl)cc2C(c2cccc(S(=O)(=O)NCCNC(=O)C(O)C(O)C(=O)NCCNS(=O)(=O)c3cccc(C4CN(C)Cc5c(Cl)cc(Cl)cc54)c3)c2)C1 (centres unmarked) | male Sprague-Dawley rat | plasma | oral | 11 mg/kg |  | < 4 ng/mL
NC(COc1ccccc1C(F)(F)F)c1ccccc1 (centres unmarked) | male Sprague-Dawley rat | serum | intravenous | 5 mg/kg |  | 250 ng/mL
CN1Cc2c(Cl)cc(Cl)cc2[C@H](c2ccc(S(=O)(=O)NCCOCCOCCNC(=O)CCC(=O)NCCOCCOCCNS(=O)(=O)c3ccc([C@@H]4CN(C)Cc5c(Cl)cc(Cl)cc54)cc3)cc2)C1 | male Sprague-Dawley rat | plasma | oral | 30 mg/kg |  | < 2 ng/mL
O=c1c2cc(Cl)ccc2sc2c(NCc3ccccc3)nc3ccccc3c12 | male Sprague-Dawley rat | plasma | intravenous | 3 mg/kg | single dose | 1450 ng/mL
CN1Cc2c(Cl)cc(Cl)cc2[C@H](c2cccc(S(=O)(=O)NCCOCCOCCOCCNC(=O)NCCCCNC(=O)NCCOCCOCCOCCNS(=O)(=O)c3cccc([C@@H]4CN(C)Cc5c(Cl)cc(Cl)cc54)c3)c2)C1 | male Sprague-Dawley rat | plasma | oral | 30 mg/kg |  | < 15 ng/mL
Cn1cc(-c2cc(N3CCCS3(=O)=O)ccc2N[C@H]2CC[C@H](C)CC2)c2cc[nH]c2c1=O | Sprague-Dawley rat | plasma | oral | 3 mg/kg |  | 29.1 ng/mL

Excerpt of the above:
SMILES | species | sample | route | dose | notes | Cmax
CN1Cc2c(Cl)cc(Cl)cc2[C@H](c2cccc(S(=O)(=O)NCCOCCOCCOCCNC(=O)NCCCCNC(=O)NCCOCCOCCOCCNS(=O)(=O)c3cccc([C@@H]4CN(C)Cc5c(Cl)cc(Cl)cc54)c3)c2)C1 | male Sprague-Dawley rat | plasma | oral | 30 mg/kg |  | < 15 ng/mL
Cn1cc(-c2cc(N3CCCS3(=O)=O)ccc2N[C@H]2CC[C@H](C)CC2)c2cc[nH]c2c1=O | Sprague-Dawley rat | plasma | oral | 3 mg/kg |  | 29.1 ng/mL
